{"data": "Published values of several laboratories", "note": "Numbered parts are unrelated; each lists some results of a single study.", "chain of UniProt P03952 (whole entry, looked up)": "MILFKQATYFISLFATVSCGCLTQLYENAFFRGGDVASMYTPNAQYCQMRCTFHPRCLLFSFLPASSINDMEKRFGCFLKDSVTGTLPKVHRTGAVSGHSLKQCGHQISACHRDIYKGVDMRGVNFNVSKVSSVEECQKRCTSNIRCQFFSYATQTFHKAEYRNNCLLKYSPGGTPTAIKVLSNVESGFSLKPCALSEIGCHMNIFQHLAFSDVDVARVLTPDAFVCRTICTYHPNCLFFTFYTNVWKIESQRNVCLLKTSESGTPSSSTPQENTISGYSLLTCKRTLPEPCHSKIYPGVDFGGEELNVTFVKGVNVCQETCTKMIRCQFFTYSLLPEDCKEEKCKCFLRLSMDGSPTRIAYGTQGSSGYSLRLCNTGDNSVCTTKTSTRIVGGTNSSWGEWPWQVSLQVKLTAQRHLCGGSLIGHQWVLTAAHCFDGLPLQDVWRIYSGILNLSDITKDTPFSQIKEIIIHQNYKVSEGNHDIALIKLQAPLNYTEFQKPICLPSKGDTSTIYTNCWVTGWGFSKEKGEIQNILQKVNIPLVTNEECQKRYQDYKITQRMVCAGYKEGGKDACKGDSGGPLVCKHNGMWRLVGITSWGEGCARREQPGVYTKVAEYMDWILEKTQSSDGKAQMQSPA", "chain of UniProt Q9Y337 (whole entry, looked up)": "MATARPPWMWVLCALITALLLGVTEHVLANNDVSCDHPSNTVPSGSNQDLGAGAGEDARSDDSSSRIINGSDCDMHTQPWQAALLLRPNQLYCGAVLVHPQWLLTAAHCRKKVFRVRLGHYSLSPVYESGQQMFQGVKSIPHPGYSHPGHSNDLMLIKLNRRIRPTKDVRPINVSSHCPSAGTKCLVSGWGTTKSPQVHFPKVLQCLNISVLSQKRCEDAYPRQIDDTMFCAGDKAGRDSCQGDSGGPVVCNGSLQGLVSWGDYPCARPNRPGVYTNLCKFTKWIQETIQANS", "chain of UniProt Q9P0G3 (whole entry, looked up)": "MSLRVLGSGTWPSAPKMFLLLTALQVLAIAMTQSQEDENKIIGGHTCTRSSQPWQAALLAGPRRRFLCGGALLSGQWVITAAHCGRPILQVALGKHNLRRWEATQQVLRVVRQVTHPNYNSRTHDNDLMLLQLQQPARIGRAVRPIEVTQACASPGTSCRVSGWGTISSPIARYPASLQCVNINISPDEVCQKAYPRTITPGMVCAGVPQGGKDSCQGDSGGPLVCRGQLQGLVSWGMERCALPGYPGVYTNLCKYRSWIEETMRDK", "chain of UniProt P03951 (whole entry, looked up)": "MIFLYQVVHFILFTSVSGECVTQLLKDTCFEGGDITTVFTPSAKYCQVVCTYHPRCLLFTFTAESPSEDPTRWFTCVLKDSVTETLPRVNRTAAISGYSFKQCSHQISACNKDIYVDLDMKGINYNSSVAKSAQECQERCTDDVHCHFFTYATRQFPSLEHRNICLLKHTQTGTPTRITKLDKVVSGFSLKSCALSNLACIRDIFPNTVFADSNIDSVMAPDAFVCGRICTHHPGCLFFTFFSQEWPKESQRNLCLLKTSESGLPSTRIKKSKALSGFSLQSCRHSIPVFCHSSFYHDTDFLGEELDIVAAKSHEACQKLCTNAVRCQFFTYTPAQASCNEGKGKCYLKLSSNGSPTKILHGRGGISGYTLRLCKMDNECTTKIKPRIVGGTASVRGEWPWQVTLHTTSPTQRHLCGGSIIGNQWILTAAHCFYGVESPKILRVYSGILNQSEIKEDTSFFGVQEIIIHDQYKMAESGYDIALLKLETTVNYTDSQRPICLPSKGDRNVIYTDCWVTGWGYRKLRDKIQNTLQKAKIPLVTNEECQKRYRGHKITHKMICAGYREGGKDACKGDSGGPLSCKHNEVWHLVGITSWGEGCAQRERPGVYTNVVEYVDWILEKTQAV", "chain of UniProt P06870 (whole entry, looked up)": "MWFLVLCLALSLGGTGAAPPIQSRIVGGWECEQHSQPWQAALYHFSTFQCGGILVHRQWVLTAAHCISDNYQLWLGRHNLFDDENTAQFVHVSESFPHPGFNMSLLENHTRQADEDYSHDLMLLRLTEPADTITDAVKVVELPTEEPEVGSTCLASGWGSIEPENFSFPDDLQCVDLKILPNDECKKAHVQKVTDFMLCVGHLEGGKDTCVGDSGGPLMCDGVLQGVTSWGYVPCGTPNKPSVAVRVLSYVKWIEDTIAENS", "chain of UniProt P20231 (whole entry, looked up)": "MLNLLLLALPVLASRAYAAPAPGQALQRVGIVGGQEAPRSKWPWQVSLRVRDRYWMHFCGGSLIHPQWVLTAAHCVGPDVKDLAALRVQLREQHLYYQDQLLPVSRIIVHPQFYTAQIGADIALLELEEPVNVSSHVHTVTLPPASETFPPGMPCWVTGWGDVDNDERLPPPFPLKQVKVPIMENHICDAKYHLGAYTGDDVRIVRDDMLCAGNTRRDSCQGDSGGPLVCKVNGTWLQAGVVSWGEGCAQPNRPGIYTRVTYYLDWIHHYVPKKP", "chain of UniProt Q8IU80 (whole entry, looked up)": "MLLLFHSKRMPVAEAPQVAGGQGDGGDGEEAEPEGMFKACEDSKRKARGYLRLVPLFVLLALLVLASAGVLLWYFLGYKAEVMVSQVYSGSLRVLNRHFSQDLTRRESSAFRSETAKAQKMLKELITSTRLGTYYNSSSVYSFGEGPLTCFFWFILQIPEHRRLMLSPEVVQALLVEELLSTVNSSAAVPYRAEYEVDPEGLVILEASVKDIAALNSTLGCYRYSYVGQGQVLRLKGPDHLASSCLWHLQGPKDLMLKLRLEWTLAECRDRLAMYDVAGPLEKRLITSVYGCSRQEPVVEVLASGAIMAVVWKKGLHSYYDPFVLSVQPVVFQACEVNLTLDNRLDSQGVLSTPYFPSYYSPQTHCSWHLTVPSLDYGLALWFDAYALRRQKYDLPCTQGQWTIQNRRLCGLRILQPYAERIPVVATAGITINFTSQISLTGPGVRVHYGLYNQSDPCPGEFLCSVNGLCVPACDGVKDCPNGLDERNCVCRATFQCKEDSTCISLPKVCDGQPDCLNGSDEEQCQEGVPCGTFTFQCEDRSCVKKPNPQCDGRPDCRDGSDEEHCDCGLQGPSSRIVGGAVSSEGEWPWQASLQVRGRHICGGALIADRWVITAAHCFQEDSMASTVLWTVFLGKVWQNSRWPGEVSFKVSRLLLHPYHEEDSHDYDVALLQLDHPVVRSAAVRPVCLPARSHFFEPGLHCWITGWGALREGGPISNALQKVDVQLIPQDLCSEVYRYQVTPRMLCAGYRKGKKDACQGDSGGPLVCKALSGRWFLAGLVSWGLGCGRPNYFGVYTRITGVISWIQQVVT"}
{"data": "Sample 1", "cell line": "A-375", "tested at": "100 µM", "time": "18 h"}
{"SMILES": "Oc1cc(Cl)ccc1Oc1ccc(Cl)cc1Cl", "viability [%]": 8.77}
{"SMILES": "c1ccc(NNc2ccccc2)cc1", "viability [%]": 23.2}
{"SMILES": "C[C@H]1CNCCc2ccc(Cl)cc21", "viability [%]": 87.4}
{"SMILES": "COc1ccc(CN(C(=O)[C@@H](N)Cc2c(C)cc(C(N)=O)cc2C)[C@@H](C)c2nc(-c3ccccc3)c[nH]2)cc1C(=O)O", "viability [%]": 100}
{"SMILES": "Cc1ccc(NC(=O)C2(c3ccc4c(c3)OC(F)(F)O4)CC2)nc1-c1cccc(C(=O)O)c1", "viability [%]": 60.2}
{"SMILES": "CN1C[C@H](C(=O)N[C@]2(C)O[C@@]3(O)[C@@H]4CCCN4C(=O)[C@H](Cc4ccccc4)N3C2=O)C=C2c3cccc4[nH]cc(c34)C[C@H]21", "viability [%]": 64.6}
{"data": "Sample 2", "cell line": "HEK-293T/ACE2", "method": "Hoechst nuclei count", "tested at": "concentration not given", "time": "16 (unit not given)", "relative to": "vehicle"}
{"Structure (SMILES)": "O=C(O[C@H]1C[N+]2(CCCOc3ccccc3)CCC1CC2)C(O)(c1cccs1)c1cccs1", "viability": "105%"}
{"Structure (SMILES)": "CN(C)[C@@H]1C(O)=C(C(N)=O)C(=O)[C@@]2(O)C(O)=C3C(=O)c4c(O)ccc(Cl)c4[C@@H](O)[C@H]3C[C@@H]12", "viability": "100%"}
{"Structure (SMILES)": "O=C(NC1CCN(CCCCC2(C(=O)NCC(F)(F)F)c3ccccc3-c3ccccc32)CC1)c1ccccc1-c1ccc(C(F)(F)F)cc1", "viability": "61.3%"}
{"Structure (SMILES)": "Nc1ncnc2c1ncn2[C@@H]1O[C@H](CO)[C@@H](O)[C@@H]1O", "viability": "97.9%"}
{"Structure (SMILES)": "N=C(N)N/N=C/c1c(Cl)cccc1Cl", "viability": "98.2%"}
{"Structure (SMILES)": "CN1CCC(=C2c3ccccc3CCn3c(C=O)cnc32)CC1", "viability": "106%"}
{"Structure (SMILES)": "C[C@@H](c1nc(-c2ccc(C#N)cc2)cs1)[C@](O)(Cn1cncn1)c1cc(F)ccc1F", "viability": "90.8%"}
{"Structure (SMILES)": "C#C[C@]1(O)CC[C@H]2[C@@H]3CCC4=CC(=O)CC[C@@H]4[C@H]3CC[C@@]21CC", "viability": "99.3%"}
{"Structure (SMILES)": "CC[C@@H]([C@H](C)O)n1ncn(-c2ccc(N3CCN(c4ccc(OC[C@@H]5CO[C@@](Cn6cncn6)(c6ccc(F)cc6F)C5)cc4)CC3)cc2)c1=O", "viability": "96%"}
{"Structure (SMILES)": "CCCCN1CCCC[C@H]1C(=O)Nc1c(C)cccc1C", "viability": "102%"}
{"Structure (SMILES)": "COc1c(N2CCNC(C)C2)c(F)cc2c(=O)c(C(=O)O)cn(C3CC3)c12 (stereo not shown)", "viability": "98.3%"}
{"Structure (SMILES)": "CS(=O)(=O)CCNCc1ccc(-c2ccc3ncnc(Nc4ccc(OCc5cccc(F)c5)c(Cl)c4)c3c2)o1", "viability": "84.4%"}
{"Structure (SMILES)": "CC(=O)O[C@]1(C(C)=O)CC[C@H]2[C@@H]3CCC4=CC(=O)CCC4=C3[C@@H](c3ccc(N(C)C)cc3)C[C@@]21C", "viability": "105%"}
{"Structure (SMILES)": "Cc1ccc(=O)n(-c2ccccc2)c1", "viability": "98.3%"}
{"Structure (SMILES)": "Nc1nc(F)nc2c1ncn2[C@@H]1O[C@H](CO)[C@@H](O)[C@@H]1O", "viability": "99.4%"}
{"Structure (SMILES)": "CCCCN(CCCC)CC(O)c1cc(Cl)cc2c1-c1ccc(Cl)cc1/C2=C/c1ccc(Cl)cc1 (stereo not shown)", "viability": "100%"}
{"Structure (SMILES)": "O=C1Nc2ccc(Cl)cc2[C@@](C#CC2CC2)(C(F)(F)F)O1", "viability": "96%"}
{"Structure (SMILES)": "Nc1nc(NC2CC2)c2ncn([C@H]3C=C[C@@H](CO)C3)c2n1", "viability": "100%"}
{"Structure (SMILES)": "C#C[C@]1(O)CC[C@H]2[C@@H]3CCC4=CC(=O)CC[C@@H]4[C@H]3C(=C)C[C@@]21CC", "viability": "104%"}
{"Structure (SMILES)": "CC(=O)OCC(=O)[C@@]12OC(C)(C)O[C@@H]1C[C@H]1[C@@H]3C[C@H](F)C4=CC(=O)C=C[C@]4(C)[C@@]3(F)[C@@H](O)C[C@@]12C", "viability": "102%"}
{"data": "Sample 3", "target": "Calcium/calmodulin-dependent protein kinase type II subunit alpha (CAMK2A, Homo sapiens, UniProt Q9UQM7)", "observed": "enzyme activity", "mode": "inhibitor", "tested at": "10 µM", "chain of UniProt Q9UQM7 (whole entry, looked up)": "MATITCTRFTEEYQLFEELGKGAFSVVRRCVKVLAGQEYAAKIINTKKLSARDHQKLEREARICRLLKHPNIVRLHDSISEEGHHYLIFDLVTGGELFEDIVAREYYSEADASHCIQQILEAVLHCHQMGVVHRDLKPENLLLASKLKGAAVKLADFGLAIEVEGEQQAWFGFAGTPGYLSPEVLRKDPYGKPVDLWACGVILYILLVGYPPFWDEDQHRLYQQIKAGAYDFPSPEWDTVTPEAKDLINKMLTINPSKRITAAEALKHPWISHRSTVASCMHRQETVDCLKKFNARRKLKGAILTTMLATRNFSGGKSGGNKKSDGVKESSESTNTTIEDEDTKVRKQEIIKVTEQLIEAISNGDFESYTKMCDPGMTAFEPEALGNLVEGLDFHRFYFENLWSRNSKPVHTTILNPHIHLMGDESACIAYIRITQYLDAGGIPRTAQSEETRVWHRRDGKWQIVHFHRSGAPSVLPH"}
{"SMILES": "COc1cc(C(=O)O[C@H]2[C@@H]3C=CO[C@@H](O[C@@H]4O[C@H](CO)[C@@H](O)[C@H](O)[C@H]4O)[C@@H]3[C@@]3(CO)O[C@@H]23)ccc1O", "inhibition [%]": 25}
{"SMILES": "C[C@]12CC[C@H](O)C[C@H]1CC[C@@H]1[C@@H]2[C@H](O)C(=O)[C@]2(C)[C@@H](c3ccc(=O)oc3)CC[C@]12O", "inhibition [%]": -4}
{"SMILES": "COc1ccc2c(c1OC)CN1CCc3cc4c(cc3C1C2)OCO4 (stereo not shown)", "inhibition [%]": 5}
{"SMILES": "O=C(O)CCCCCCCCCO", "inhibition [%]": -20}
{"SMILES": "CN1C[C@@H]2C[C@H](C1)c1cccc(=O)n1C2", "inhibition [%]": -13}
{"SMILES": "CC(=O)O[C@H]1C[C@H](O[C@H]2[C@@H](O)C[C@H](O[C@H]3[C@@H](O)C[C@H](O[C@H]4CC[C@@]5(C)[C@H](CC[C@@H]6[C@@H]5C[C@@H](O)[C@]5(C)[C@@H](C7=CC(=O)OC7)CC[C@]65O)C4)O[C@@H]3C)O[C@@H]2C)O[C@H](C)[C@H]1O[C@@H]1O[C@H](CO)[C@@H](O)[C@H](O)[C@H]1O", "inhibition [%]": -4}
{"SMILES": "COc1c(C(C)C)cc2c(c1O)[C@@]1(C(=O)O)CCCC(C)(C)[C@@H]1CC2", "inhibition [%]": -23}
{"data": "Sample 4", "SMILES": "N=C(N)c1ccc2cc(OC(=O)c3ccc(N=C(N)N)cc3)ccc2c1"}
{"target": "Kallikrein-1 (KLK1, Homo sapiens, UniProt P06870)", "IC50 [nM]": 2390}
{"target": "Kallikrein-14 (Homo sapiens, UniProt Q9P0G3)", "IC50 [nM]": 2.15}
{"target": "Tryptase beta-2 (TPSB2, Homo sapiens, UniProt P20231)", "IC50 [nM]": "< 0.508"}
{"target": "Kallikrein-5 (Homo sapiens, UniProt Q9Y337)", "IC50 [nM]": 637}
{"target": "Coagulation factor XI (F11, Homo sapiens, UniProt P03951)", "IC50 [nM]": 0.856}
{"target": "Plasma kallikrein (KLKB1, Homo sapiens, UniProt P03952)", "IC50 [nM]": "< 0.508"}
{"target": "Transmembrane protease serine 6 (Homo sapiens, UniProt Q8IU80)", "IC50 [nM]": "< 0.508"}
